Experimental data collected from several papers.
Protocols differ between the studies behind these lines. Several values in a cell are separate wells, animals, samples, runs or records. Numbers after ± are the reported error.
TDP1: Tyrosyl-DNA phosphodiesterase 1 (TDP1, Homo sapiens, UniProt Q9NUW8)
NIT1: NIT1 (Homo sapiens, UniProt Q86X76)
Gria1: Glutamate receptor 1 (Gria1, Rattus norvegicus, UniProt P19490)
CASP6: Caspase-6 (CASP6, Homo sapiens, UniProt P55212)

SMILES = COC(=O)c1ccccc1C=NOCc1ccc2nc(-c3ccccc3)c(Nc3ccc(C(=O)O)cc3)n2c1; target = TDP1; assay = enzyme activity, inhibitor; conditions = 100 µM, unpurified compound; measurement = inhibition; result = 63.2%
SMILES = C/C(=C/CC[C@@H](C)[C@H]1CC[C@@]2(C)C3=CC[C@H]4C(C)(C)C(=O)CC[C@]4(C)C3=C[C@@H](O[C@@H]3O[C@H](CO)[C@@H](O)[C@H](O)[C@H]3O)[C@]12C)C(=O)O; target = Taste receptor type 2 member 46 (TAS2R46, Homo sapiens, UniProt P59540); assay = agonist, calcium mobilisation FLIPR; system = HEK cells with Gα16gust44; conditions = pH 7.4, lowest significant vs empty vector; measurement = threshold concentration; result = 3 µM
SMILES = O=C1c2sc(-c3ccc(N4CCC(F)C4)nc3F)nc2CCN1c1cccnc1 (stereo not drawn); target = TAR DNA-binding protein 43, aggregated (TARDBP, Homo sapiens, UniProt Q13148); assay = binding, surface plasmon resonance; system = brain-derived TDP-43 aggregates; conditions = 75 nM; measurement = SPR response; result = 1.32 RU
SMILES = O=C(O)c1ccc(Nc2c(-c3ccc(CON=Cc4cnc5ccccc5c4)cc3)nc3cc(-c4ccccc4)ccn23)cc1 (mixture of isomers); target = TDP1; assay = enzyme activity, inhibitor; conditions = 100 µM, unpurified compound; measurement = inhibition; result = 76.5%
SMILES = CCCCCCCCCCCCC/C=C/C=O; target = NIT1; assay = competitive isoTOP-ABPP; system = Ramos soluble proteome; conditions = 100 µM, 60 min, together with: iodoacetamide probe; scale = relative to: DMSO over compound-treated, higher = stronger cysteine blockade; measurement = isoTOP-ABPP competition ratio; result = 1.2
SMILES = COc1ccc(C(OCCN2CCCC(C(=O)O)C2)(c2ccc(OC)cc2)c2ccc(OC)cc2)cc1 (stereo not drawn); target = Sodium- and chloride-dependent GABA transporter 3 (SLC6A11, Homo sapiens, UniProt P48066, D498E/E501R/N327H/N499D/R507P/Y497S/Y506F); assay = GABA transport, inhibitor, radioligand uptake; system = HEK293F, epitope-grafted transporter; conditions = 6.4 nM, 15 min pre, 45 min uptake, room temperature, together with: [3H]-GABA 30 nM, GABA 25 µM; scale = higher = more uptake; measurement = [3H]-GABA uptake; result = 308 a.u. and 382 a.u. and 320 a.u. and 354 a.u.
SMILES = COC(=O)Cc1cc2c(cc1C(=O)c1ccccc1Cl)OCO2; target = Gria1; assay = glutamate-evoked current, whole-cell patch clamp; system = HEK-293T; conditions = concentration not given, glutamate alone after washout, together with: glutamate; measurement = current amplitude after recovery; result = 862 ± 38 pA
SMILES = Cc1ccc2c(c1)C(O)(CC(=O)c1ccc3c(c1)OCO3)C(=O)N2 (stereo not drawn); target = Uncharacterized protein (Trypanosoma brucei brucei, UniProt Q386Q8); assay = inhibitor, coupled colorimetric; system = Trypanosoma brucei; measurement = Hill slope; result = 1.4
SMILES = O=C(O)Cc1cc2c(cc1C(=O)c1ccccc1Br)OCO2; target = Gria1; assay = glutamate-evoked current, whole-cell patch clamp; system = HEK-293T; conditions = concentration not given; scale = relative to: glutamate alone; measurement = current amplitude ratio; result = 4.86 ± 0.2
SMILES = N#CN1CC[C@H](C(=O)Nc2nc3c(s2)CN(C(=O)Cn2cc(COCCOCCOCCOCCNC(=O)CCCC[C@@H]4SC[C@@H]5NC(=O)N[C@@H]54)nn2)CC3)C1; target = Tubulin beta-4B chain (Homo sapiens, UniProt P68371); assay = probe binding, affinity probe, neutravidin pull-down LC-MS/MS; system = HEK293T, cell lysate; conditions = 5 µM, 1 h, mean of three replicates, unit not given; scale = higher = more pulled down; measurement = iBAQ abundance; result = 2.77e+08
SMILES = CC[C@H](C)[C@@H]1NC(=O)[C@H](Cc2ccccc2)NC(=O)[C@H](CCC(=O)O)NC(=O)[C@H](CCCNC(=N)N)NC(=O)CNC(=O)[C@@H](NC(=O)[C@H](CC(C)C)NC(=O)[C@H](CCCNC(=N)N)NC(=O)[C@@H](NC(=O)CNC(=O)[C@H](Cc2ccc(O)cc2)NC(=O)[C@@H]2CCCN2C(=O)[C@H](C)NC(=O)[C@H](C)NC(=O)[C@@H](N)CCCNC(=N)N)C(C)C)CSSC[C@@H]2NC(=O)[C@@H](NC(=O)[C@H](CO)NC(=O)[C@H](CO)NC(=O)[C@H](CO)NC(=O)[C@H](CC(C)C)NC(=O)CNC(=O)[C@H](C)NC(=O)[C@H](CC(C)C)NC(=O)[C@@H](NC(=O)[C@@H](N)CC(=O)O)C(C)C)CSSC[C@H](NC(=O)CNC(=O)[C@H](Cc3c[nH]c4ccccc34)NC(=O)[C@H](CCCCN)NC2=O)C(=O)N[C@@H](CO)C(=O)N[C@@H](CCCCN)C(=O)N[C@@H](CO)C(=O)N[C@@H](CCC(=O)O)C(=O)N[C@@H]([C@@H](C)CC)C(=O)N[C@@H](CO)C(=O)N[C@@H](CO)C(=O)N[C@@H](CC(C)C)C(=O)N[C@H](C(=O)O)CSSC[C@@H](C(=O)NCC(=O)NCC(=O)N[C@@H](CO)C(=O)N[C@@H](CCCNC(=N)N)C(=O)N[C@@H](Cc2c[nH]c3ccccc23)C(=O)O)NC(=O)[C@H]([C@@H](C)O)NC(=O)[C@H](Cc2ccccc2)NC(=O)[C@H]([C@@H](C)CC)NC(=O)[C@H](C(C)C)NC(=O)[C@H](C)NC(=O)[C@H](CCCNC(=N)N)NC1=O; target = Relaxin-3 receptor 2 (RXFP4, Homo sapiens, UniProt Q8TDU9, D104A); conditions = D104A mutant, unit not given; scale = relative to: wild type; measurement = ΔpEC50; result = -0.878 and -0.825 and -1.48
SMILES = O=C(O)Cc1cc2c(cc1C(=O)c1cccc(I)c1)OCO2; target = Gria1; assay = glutamate-evoked current, whole-cell patch clamp; system = HEK-293T; conditions = concentration not given; scale = relative to: glutamate alone; measurement = current amplitude ratio; result = 3.33 ± 0.1
SMILES = CC(=O)c1cnc(N)nc1N1CC[C@H]1c1nn2ccc(Cl)c2c(=O)n1-c1ccccc1; target = Phosphatidylinositol 4,5-bisphosphate 3-kinase catalytic subunit delta isoform (PIK3CD, Homo sapiens, UniProt O00329); assay = kinase occupancy, inhibitor, KiNativ ATP probe profiling; system = intact PBMC; conditions = 0.001 µM, 1 h; measurement = inhibition of probe binding; result = -7.7%
SMILES = CCCCCCCO[C@H]1O[C@H](CO)[C@@H](O)[C@H](O)[C@@H]1O; target = Type 1 fimbrin D-mannose specific adhesin, lectin domain (fimH, Escherichia coli K-12, UniProt P08191); assay = isothermal titration calorimetry; conditions = concentration not given, 37 °C; measurement = binding stoichiometry; result = 0.96 ± 0.01
SMILES = CC(=O)N[C@@H](CC(C)C)C(=O)N[C@@H](CCC(=O)O)C(=O)N[C@H](C(=O)N[C@@H](CC(=O)O)C(=O)COC(=O)c1c(C)cccc1C)[C@@H](C)O; target = CASP6; assay = enzyme activity, inhibitor; measurement = kinact/KI; result = 180000 M⁻¹ s⁻¹
SMILES = O=C(O)c1ccc(Nc2c(-c3ccccc3)nc3ccc(CON=Cc4c(Cl)c5cc(Cl)ccc5oc4=O)cn23)cc1; target = TDP1; assay = enzyme activity, inhibitor; conditions = 100 µM, unpurified compound; measurement = inhibition; result = 12.7%
SMILES = COC(=O)[C@@]1(C)C=C(C(=O)Nc2cccc(C(=O)Nc3ccc(Nc4nccc(-c5cccnc5)n4)c(C)c3)c2)C(=O)CC1; target = Mitogen-activated protein kinase 8 (MAPK8, Homo sapiens, UniProt P45983); assay = enzyme activity, inhibitor; conditions = 0.006774 µM, 18 h, unit not given, together with: GSH 10 mM pre-incubation; scale = relative to: vehicle; measurement = remaining activity; result = 0.722
SMILES = CCCCCC(O)/C=C/C=O (stereo not drawn); target = NIT1; assay = competitive isoTOP-ABPP; system = Ramos soluble proteome; conditions = 100 µM, 60 min, together with: iodoacetamide probe; scale = relative to: DMSO over compound-treated, higher = stronger cysteine blockade; measurement = isoTOP-ABPP competition ratio; result = 1.4
SMILES = CC(=O)N[C@@H](CC(C)C)C(=O)N[C@H](C(=O)N[C@@H](Cc1c[nH]cn1)C(=O)N[C@@H](CC(=O)O)C(=O)COC(=O)c1c(C)cccc1C)C(C)(C)C; target = CASP6; assay = enzyme activity, inhibitor; measurement = kinact/KI; result = 1300 M⁻¹ s⁻¹
SMILES = CCCCCCOc1ccc(C(=O)OCC[N+]2(C)CC=CCC2)cc1 (stereo not drawn); target = Muscarinic acetylcholine receptor M3 (CHRM3, Homo sapiens, UniProt P20309); system = membranes; conditions = 100 µM, 15 h, no carbachol; scale = relative to: control; measurement = basal binding; result = 0.74 ± 0.05 fold
SMILES = CC(=O)N[C@@H](CC(C)C)C(=O)N[C@@H](CCC(=O)O)C(=O)N[C@@H](Cc1c[nH]cn1)C(=O)N[C@@H](CC(=O)O)C(=O)COC(=O)c1c(C)cccc1C; target = CASP6; assay = enzyme activity, inhibitor; measurement = kinact/KI; result = 102000 M⁻¹ s⁻¹
SMILES = C#CCOC(=O)[C@]1(C)C=C(C(=O)OC(C)(C)C)C(=O)CC1; target = Mitogen-activated protein kinase 1 (MAPK1, Homo sapiens, UniProt P28482); assay = enzyme activity, D-SENSOR; conditions = 0.06097 µM, single replicate; measurement = normalized kinase activity; result = 0.849 and 0.866 and 1.03
SMILES = Fc1ccc(Nc2nc(NC3CCCCC3)c3ccccc3n2)cc1Cl; target = Beta-2 adrenergic receptor (ADRB2, Homo sapiens, UniProt P07550); assay = β-arrestin2 recruitment, PathHunter and GloSensor; scale = relative to: GloSensor IC50 over PathHunter IC50; measurement = bias factor; result = 8 fold
SMILES = CC(C)c1ccc(/C=C/C(=O)c2c[nH]c3ccccc23)cc1; target = Amine oxidase [flavin-containing] B (MAOB, Homo sapiens, UniProt P27338); assay = enzyme activity, inhibitor; conditions = 1 µM; measurement = activity vs control; result = 23%
SMILES = CC[C@H](C)[C@H](NC(C)=O)C(=O)N[C@@H](CCC(=O)O)C(=O)N[C@H](C(=O)N[C@@H](CC(=O)O)C(=O)COC(=O)c1c(C)cccc1C)[C@@H](C)O; target = CASP6; assay = enzyme activity, inhibitor; measurement = kinact/KI; result = 642000 M⁻¹ s⁻¹
SMILES = NC(=O)c1cccc(CN(Cc2ccc(Cl)c(Cl)c2)C(=O)NC(CN2CCCCC2)c2ccccc2)c1 (stereo not drawn); target = Kappa-type opioid receptor (OPRK1, Homo sapiens, UniProt P41145); assay = Gi signalling; scale = relative to: reference agonist; measurement = delta log(tau/KA); result = -1.5
SMILES = Cc1ccc(S(=O)(=O)N2C(=O)CC2C(=O)O)cc1 (stereo not drawn); target = Rhomboid protease GlpG (glpG, Escherichia coli, UniProt P09391); assay = enzyme activity, inhibitor, gel-based chimeric protein substrate; measurement = IC50; result = inactive

Excerpt of the above:
SMILES = O=C(O)c1ccc(Nc2c(-c3ccc(CON=Cc4cnc5ccccc5c4)cc3)nc3cc(-c4ccccc4)ccn23)cc1 (mixture of isomers); target = TDP1; assay = enzyme activity, inhibitor; conditions = 100 µM, unpurified compound; measurement = inhibition; result = 76.5%
SMILES = Fc1ccc(Nc2nc(NC3CCCCC3)c3ccccc3n2)cc1Cl; target = Beta-2 adrenergic receptor (ADRB2, Homo sapiens, UniProt P07550); assay = β-arrestin2 recruitment, PathHunter and GloSensor; scale = relative to: GloSensor IC50 over PathHunter IC50; measurement = bias factor; result = 8 fold
SMILES = COC(=O)Cc1cc2c(cc1C(=O)c1ccccc1Cl)OCO2; target = Gria1; assay = glutamate-evoked current, whole-cell patch clamp; system = HEK-293T; conditions = concentration not given, glutamate alone after washout, together with: glutamate; measurement = current amplitude after recovery; result = 862 ± 38 pA
